Measurements gathered from unrelated publications.
“And” joins repeats or separate records; there may be more than shown. ± marks the error that the study gave.
OPRM1: Mu-type opioid receptor (OPRM1, Homo sapiens, UniProt P35372)

Structure (SMILES) | target | test | system | conditions | how to read | endpoint | value
C[C@@H](Cc1ccsc1)NC(=O)NC[C@H](Cc1ccc(O)cc1)N(C)C | OPRM1 | β-arrestin recruitment, agonist | HEK-293T |  |  | Emax | < 5%
O=C(O)c1ccc(-c2nc(-c3ccccc3Cl)c3sccn23)cc1 | OPRM1 | radioligand binding, safety screen panel |  | 10 µM | reference: control | specific binding | 99% and 98.6%
COc1ccc2c(c1)[C@]13CCCC[C@@H]1[C@H](C2)N(C)CC3 | OPRM1 | ligand displacement, radioligand |  | 1 µM |  | inhibition | 31%
CN[C@@H]1[C@H](O)[C@H](NC)[C@H]2O[C@]3(O)[C@H](O[C@@H]2[C@H]1O)O[C@H](C)C[C@H]3NC(=O)Cc1ccc(Cl)cn1 | OPRM1 | ligand displacement, radioligand |  | 10 µM |  | inhibition | -2%
COc1cc2c(cc1NC(=O)c1cncn1C)C[C@H]1[C@H]3CCCC[C@@]23CCN1C | OPRM1 | ligand displacement, radioligand |  | 10 µM |  | inhibition | 43.6%
Cc1cc(Nc2nc(C[C@@]3(C(=O)O)CCN(Cc4cccc(Cl)c4F)[C@H](C)C3)cc(C)c2F)[nH]n1 | OPRM1 | agonist |  | 10 µM |  | activation | -0.34%
N[C@H](C(=O)N1CCCC1)C1CCN(c2nccc3c(-c4ncc(Cl)cc4Cl)cccc23)CC1 | OPRM1 | functional response, antagonist |  | 10 µM |  | inhibition | 11%
COc1cc2c(cc1-n1ccnc1)C[C@H]1[C@H]3CCCC[C@@]23CCN1C | OPRM1 | ligand displacement, radioligand |  | 1 µM |  | inhibition | 34.5%
CCN(CC)CCOc1ccc(-c2nnn(Cc3ccc(OC)cc3)c2N)cc1 | OPRM1 | radioligand binding | HEK293 | 10 µM, safety profiling |  | inhibition | 9.88%
C[C@@H]1COCCN1c1nc(NCc2cccnc2C(F)(F)F)c2cccnc2n1 | OPRM1 | binding |  | CEREP panel |  | IC50 | 3.46 µM
CCc1nnc(-c2c(OC)cc(-c3cnc4cc(-c5cnn(C)c5)ccn34)cc2OC)o1 | OPRM1 | agonist, radioligand binding |  | 10 µM | reference: control | specific binding | 87.4%
CN(C)[C@H](CNC(=O)/C=C/c1cccc2ccccc12)Cc1ccc(O)cc1 | Mu-type opioid receptor, with Gi3 (OPRM1, Homo sapiens, UniProt P35372) | receptor activation, agonist |  |  |  | Emax | 67 ± 7%
Cc1sc2c(c1C)C(c1ccc(Cl)cc1)=NC(CC(=O)OC(C)(C)C)c1nnc(C)n1-2 (stereo not shown) | OPRM1 | ligand displacement, radioligand |  | 1 µM |  | remaining binding | 104%
O=C(Cc1ccc(Cl)c(Cl)c1)N1CCN[C@@H]2COC[C@H](N3CCCC3)[C@H]21 | OPRM1 | radioligand binding |  | up to 20 µM, with: [3H]DAMGO |  | inhibition | ≤ 50%
C/C(=N\OCCCN1CCCCC1)c1ccc(C(F)(F)F)cc1 | OPRM1 | agonist, cAMP |  | 10 µM |  | activation | -1.49%
Cc1cc(-c2ccc3ccccc3c2)nnc1NCCN1CCN(C)CC1 | OPRM1 | antagonist |  | 10000 nM | reference: control | activity | 0%

Excerpt of the above:
Structure (SMILES) | target | test | system | conditions | how to read | endpoint | value
Cc1cc(Nc2nc(C[C@@]3(C(=O)O)CCN(Cc4cccc(Cl)c4F)[C@H](C)C3)cc(C)c2F)[nH]n1 | OPRM1 | agonist |  | 10 µM |  | activation | -0.34%
